Measured values from different studies.
Each numbered part is a random draw from the data of one study; scales do not carry over between parts. Positions count from the first letter of the parent shown.

Study 1 — technique: DHFR PCA, deep sequencing; medium: yeast; together with: (+)-ABA 0 µM; baseline: wild-type fitted maximum; direction: higher = stronger binding
Target: ABI1, truncated, D143A, DHFR fusion (Arabidopsis thaliana)
Notes: methotrexate growth selection, single substitutions
Starting sequence: PYL1, truncated, DHFR fusion (Arabidopsis thaliana); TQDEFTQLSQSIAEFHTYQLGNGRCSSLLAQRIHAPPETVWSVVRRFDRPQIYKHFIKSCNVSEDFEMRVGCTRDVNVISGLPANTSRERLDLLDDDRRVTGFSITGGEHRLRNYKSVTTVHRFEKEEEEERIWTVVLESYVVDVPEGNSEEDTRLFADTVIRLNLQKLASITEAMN; partner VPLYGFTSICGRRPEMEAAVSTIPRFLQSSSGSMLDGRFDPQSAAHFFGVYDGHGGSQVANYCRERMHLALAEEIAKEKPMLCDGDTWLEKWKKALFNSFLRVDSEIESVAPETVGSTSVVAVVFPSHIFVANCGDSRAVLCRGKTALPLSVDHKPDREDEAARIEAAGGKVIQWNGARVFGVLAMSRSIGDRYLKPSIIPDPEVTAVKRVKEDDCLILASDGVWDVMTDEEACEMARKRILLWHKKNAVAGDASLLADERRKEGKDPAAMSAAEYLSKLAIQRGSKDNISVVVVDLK
Change	relative binding score [%]
R69C	16.5
L156S	2.91
E67I	15.9
Y18P	4.44
T6Q	39.9
E174A	2.94
V70W	-1.1
T73C	14.5
S117G	10.2
F15E	1.44
V121K	-0.306
R163F	-38.1
A84N	38.6
L112R	-1.02
E151V	41.6
L20I	37.6

Study 2 — technique: universal PBM; molecule type: double-stranded DNA, one strand shown; medium: in vitro; tested at: not given; direction: higher = stronger binding
Target: Sal-like protein 4, full length isoform B (SALL4, Homo sapiens, UniProt Q9UJQ4-2, residues 1-616)
Notes: 8-mer, flanks averaged, mean of replicates
Strand	E-score
GGGGCACA	-0.117
GCTTTGCA	-0.225
TAGAGCGA	-0.121
CCACCCAA	-0.0951
GCAATACA	0.146
CCGGAGCC	-0.323
AGTACGGA	-0.0153
CCCATGTC	-0.184
ATTCGGTA	0.142
CATTCTTA	0.16
TTGGGAAA	0.142
AGCTAAAG	0.0152
CTACGTGC	-0.0493
GCGTAAAA	0.182
ACAGTAAA	0.228
ACGGTATC	-0.011
ACTGCGGG	-0.144
GGCCACGA	-0.194
CGCGCTAA	-0.131
AGTTGTCG	-0.0405

Study 3 — target: CREB3, bZIP domain (human); technique: DHFR protein complementation; medium: yeast; baseline: wild-type JUN-FOS pair; direction: higher = stronger binding
Notes: single substitutions, most at no-binding floor
Starting sequence: JUN, bZIP domain (human); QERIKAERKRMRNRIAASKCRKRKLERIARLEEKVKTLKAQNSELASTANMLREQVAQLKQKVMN; partner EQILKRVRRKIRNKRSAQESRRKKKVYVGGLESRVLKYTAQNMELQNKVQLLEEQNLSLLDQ
Change	binding fitness [natural log]
E54C	-1.45
T48Y	-1.37
Q55K	-1.53
A46V	-1.34
S43W	-1.51
K39E	-1.41
V35Q	-1.55
A29T	-1.44
S47V	-1.4
A57M	-1.58
L45H	-1.55
E44Y	-1.41
S47N	-1.37
Q41P	-1.55
T48F	-1.56
T37I	-1.35
A40P	-1.51
E54K	-1.41
I28R	-1.44
N42K	-1.31
K36M	-1.51
L45A	-1.53
L52Y	-1.51
E32Y	-1.24
E44T	-1.5

Study 4 — technique: RNA Bind-n-Seq; molecule type: RNA; medium: in vitro; tested at: 365 nM; baseline: no-protein control; direction: higher = stronger binding
Target: RNA binding protein fox-1 homolog 2, RRM domain, GST-SBP tag (RBFOX2, Homo sapiens, UniProt O43251-10, residues 100-194)
Notes: natural RNA segment, single round, ends assumed
Constant ends, left off below: GGGAGUUCUACAGUCCGACGAUC … UGGAAUUCUCGGGUGCCAA
Residues (chain): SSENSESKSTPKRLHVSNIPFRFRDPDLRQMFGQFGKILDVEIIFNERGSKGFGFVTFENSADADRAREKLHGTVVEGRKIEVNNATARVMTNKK
Strand	RBNS enrichment (R)
GGCGUUGCUAGGAUUGCGUCAGUUUUCCUGUUUGCACUAUUUCUUUUUGUAACAGUGACCCUGUCUUAAGUCUUUCAGAUCUCUUUGCUUUGAAACUUCGUCGAUUCCAU	0.208
CCCUGUGGUCUUUUGUUCAACAUUGUACAAUGUAGAACUCUGUCCAACACUAAUUUAUUUUGUCUUGAGUUUUACUACAAGAUGAGACUAUGGAUCCCGCAUGCCUGAAU	2.48
ACAACAGUGUGUAUGCAGCCGUGCUUACAGCCUGUGGUUGCUACCUGUUGUACCAGUCUGACCAGUGUUUGGAAUGUUCAGACAUAAUCUCCUGUGUGAAGCUCAAGGUC	0.549
ACUGUUUGGACCUCAGGACCUUUUCCCCUCUGGGACACUGCAUGCCGUGGAAAACCUUUUCAGAAACUACAUUCAUUGUUCUUUAAGCAGACCAAAAGUCACAACAGUGG	2.45
AGGUAGUGUUUUCAGUACCAUCAUCACUUCUGUCACUCACAGCAUAAUUGUGGAAGCAGAUUCAUUGCUAGUUUAGUUUCAUAUAUAAUAUAUACAGUAAUUGUAGGGUC	0.6
CUGCUCCAGCCACACUGUGAGGCUGUGGAGAACUGAAACUGUUUGACAGUGGUGCCCUAUGGAAGGGCACCUAGUUGGCUAGGGGUGUAGGCUGAGCUGAGAGGGGUGUU	0.83
UUCUCUCCUCUUAUCAUCUAACAUACCCUACUUGGAAAGAUCUAAGAUCUCAAUCUUAUCCUUUGCCGCCUGCUAUCACCAUAUGGUGUUGGAUUCAAGUUUAAUUAGCU	0.71
GCAAGAGCUGAACUCCUGCUGCCUGGUAGGCCCCACAAGGCCUAGUCUGGAAGCGUAUGGAAUCAGAAAUAAUCCUCAGUGUAAAAUGUCUUGUGAUUUUUCUCUGUGAA	0.334
AAGCUGUGCUGUGUAUUGGUGGUUUUAGAAAGACUCAGCUCAUGAGCUGUGUUAAACCUUAACAUGAGACUCAUAUAUUCAGGGUUACAUGAGUUACUUUUAUAAAUCGA	0.264
CAGGAAGCUUACACAUUUUCUCAGAGGCCUUUGUGCUCCCACCUCUUCUACCCUCCCCCUCUUCUUUCCCAUUUUAAAAAAGAAAAGAAGGAAAAAGAAAAAAGGGGCAA	0.235
UGGGGCCAGGGGACCAAGAGUCAGCAAGCAAUAAGACGCCACCCUCACUGUCCUCAGGAGCCAGGCAUCCUCCCUGGGUGCCCACUCUUUGCAUCUGCUUUUCCUGUAAG	0.977
CCUGUUUUGAAGUGCUAUUACCUUUCUCAGUUACCAGAAUCUUGCUGCUAAAGUUGCAAGUGAUUGAUAAUGGAUUUUUAACAGAGAAGUCUUUGUUUUUGAAAAACAAA	0.45

Study 5 — technique: RNA Bind-n-Seq; molecule type: RNA; medium: in vitro; tested at: 200 nM; notes: whole 134-nt RNA, ends assumed; together with: 150 mM LiCl; baseline: input library; direction: higher = stronger binding; each molecule: 7-deaza-guanosine replaces G
Target: Fragile X messenger ribonucleoprotein 1, C-terminal low-complexity region (Fmr1, Mus musculus, UniProt P35922)
Constant ends, left off below: GGGAGUUCUACAGUCCGACGAUC … UGGAAUUCUCGGGUGUCAAGG
Strand	log2 enrichment
UCCUGUGCUACACAUCGUAUGUACCGAAUCGGGGCCCCCGGGGCCCCCGGGGCCCCCGGAAAGUAUUAUGUUACGCCGUUCGGAUCUGCA	0.955
GUCCUGUGCUACACAUCGUAUGUACCGAAUCGGGGUUUUUUUGGGGAGGGGAAAGGGGAAAGUAUUAUGUUACGCCGUUCGGAUCUGCAC	0.344
CUCAAGUCCUGUGCUACACAUCGUAUGUACCGAAUCGGUUGGUUGGGUUGGGGAAAGUAUUAUGUUACGCCGUUCGGAUCUGCACUUCCA	-0.987
UGGCCCUGGUGGCAUGCGGGGAGGAAGGGGUGGCCUCAUGGAUCGUGGUGGUCCCGGUGGAAUGUUCAGAGGUGGCCGUGGUGGAGACAG	0.0816
UUAGAAGAACCCGAAGAACCUAAAGUGCUAACACCAGAAGAACAAUUAGCAGAUAAACUGCGGCUAAAGAAAUUACAGGAAGAGUCAGAC	0.778
CCUGUGCUACACAUCGUAUGUACCGAAUCGGUUUUUUUGGUUUUUUUGGGUUUUUUUGGGAAAGUAUUAUGUUACGCCGUUCGGAUCUGC	-1.56
CAAGUCCUGUGCUACACAUCGUAUGUACCGAAUCGGGGAGGGGAGGGGUUUGGGGAAAGUAUUAUGUUACGCCGUUCGGAUCUGCACUUC	-0.044
GUCCUGUGCUACACAUCGUAUGUACCGAAUCGGGAAAAAGGGUUUUUUUGGGAAAGGGAAAGUAUUAUGUUACGCCGUUCGGAUCUGCAC	-1.96
AGUCCUGUGCUACACAUCGUAUGUACCGAAUCGGGUUUUUGGUUUUUGGGGUUUUUGGAAAGUAUUAUGUUACGCCGUUCGGAUCUGCAC	-1.5
UUAGAUGAGUGACCGAGGAGGUGGCGUUCCUUUGAGGAAAAUUGACAGACUUUUCAACUACAUGUAUUCAACUGCACCAAGACCUCGUGU	-1.46
AGUCCUGUGCUACACAUCGUAUGUACCGAAUCGGGGUUUGGGGUUUGGGGUUUGGGGAAAGUAUUAUGUUACGCCGUUCGGAUCUGCACU	-1.32

Study 6 — target: CCNE2, cyclin fold, Cln2 fusion (human); technique: yeast growth competition, sequencing; medium: yeast; notes: weak parent motif; baseline: not given; direction: higher = stronger binding
Starting sequence: PKN2 docking peptide (human); VSAVQKLDFSDTM; partner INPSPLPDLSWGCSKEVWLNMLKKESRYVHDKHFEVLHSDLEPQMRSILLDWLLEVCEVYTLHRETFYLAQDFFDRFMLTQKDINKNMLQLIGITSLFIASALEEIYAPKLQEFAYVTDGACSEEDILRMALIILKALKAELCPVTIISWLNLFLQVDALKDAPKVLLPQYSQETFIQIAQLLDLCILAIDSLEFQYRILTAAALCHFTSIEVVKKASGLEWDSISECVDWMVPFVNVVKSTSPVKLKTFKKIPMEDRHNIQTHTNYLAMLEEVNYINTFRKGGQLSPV
Change	normalised enrichment score
VSGVQKLDFSDTM [A3G]	-0.497
VSAVQVLDFSDTM [K6V]	0.0348
VSAVQKLDFSDTI [M13I]	0.408
VSAVQKLDSSDTM [F9S]	0.436
VSAVQKLDGSDTM [F9G]	0.249
VSAVQGLDFSDTM [K6G]	-0.166
VSAVQKLDTSDTM [F9T]	-0.483
VSAVQKLWFSDTM [D8W]	0.561
VSAVQKLDFTDTM [S10T]	-0.147
VSAVQKKDFSDTM [L7K]	-0.137
VSAVQKLDFSSTM [D11S]	0.144
VSAVQKLDFYDTM [S10Y]	0.513
MSAVQKLDFSDTM [V1M]	-0.254
VKAVQKLDFSDTM [S2K]	0.109
VSAVQKLHFSDTM [D8H]	0.293
VSAVQKLDFSDAM [T12A]	0.161
VSAVQKFDFSDTM [L7F]	0.102
VSAVQKLDFSDMM [T12M]	-0.511
VSAVQKLDFSDYM [T12Y]	0.173
NSAVQKLDFSDTM [V1N]	0.627
VSAVQKLDFSNTM [D11N]	0.279
VSAPQKLDFSDTM [V4P]	0.486
VSANQKLDFSDTM [V4N]	-0.738
VSAVQKLDFVDTM [S10V]	0.406
VSAFQKLDFSDTM [V4F]	-0.0751

Repeated from above (study 3):
Change	binding fitness [natural log]
T37I	-1.35
K39E	-1.41
E54K	-1.41
K36M	-1.51
A40P	-1.51
S47N	-1.37
A46V	-1.34
L52Y	-1.51
L45H	-1.55
S43W	-1.51
A57M	-1.58
E44Y	-1.41
I28R	-1.44
Q41P	-1.55
